Assay results of several laboratories.
Each numbered part is a random draw from the data of one study; scales do not carry over between parts. Changes are numbered by the printed parent chain.

Study 1
Target: RNA binding protein fox-1 homolog 2, RRM domain, GST-SBP tag (RBFOX2, Homo sapiens, UniProt O43251-10, residues 100-194)
Method: RNA Bind-n-Seq
Form: RNA
Sample: in vitro
Concentration: 365 nM
Setting: natural RNA segment, single round, ends assumed
Relative to: no-protein control
Reading: higher = stronger binding
Quantity: RBNS enrichment (R)
All sequences stand within: GGGAGUUCUACAGUCCGACGAUC … UGGAAUUCUCGGGUGCCAA
Residues (chain): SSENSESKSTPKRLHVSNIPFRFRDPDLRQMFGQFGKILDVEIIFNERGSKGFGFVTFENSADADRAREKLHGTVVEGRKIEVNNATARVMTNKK
GAAGAGAAGCGUGUUAGCCCAUUUGAGGUCUGGGGAAUCAUGUAAAGGGUACCCAGACCUCACUUUUAGUUAUUUACAUCAAUGAGUUCUUUCAGGGAACCAAACCCAGA: 0.288
CUUGAGGUGAUAGUUGUUAAAAACAAUACCAGUAUUUGAUCCAGUUUCAUCUCAACUAUGUUAUACCUGGACAUUUUAGAUGUUUAUCAAAGGUCUUUUAUGGGGAAGAA: 0.3
GUCCUCACCAACACUUGUGAUUAUGUGUCUUUUAAAAUUAUAGCCAUCCUUGUGGAUGUGAAGUGGUAACUCAUUGUGGCUUUGAUUUACAUUUCCUUGAUAGCUAAUGA: 0.45
AAUGAAUCUUUGAAAUUUUUUAUUGUUGAAAAAGUGUUAAGUAACAUAAAUCUAAUCAGAUAUCUUAUGUAGUCCAUCUCUGCUGGCUUUAGUAACUGCUCCUAAACUUU: 0.679
AGAACUGGUCACAUGGGUUUGGAAUCUUUGAUUUCCCCUGUAUGAAUUGUACUGGCUGUUGACCACCAGACACCUGACUGCAAAUAUCUUUUCUUGUAUUCCCAUAUUUC: 0.341
AAGGAAACCCUGUAUAUACCUACAUUGACCCAAGAAAUAUUUACGCAAUCCCUAGCAGAACAUUGUUUCUGAGGAGGCAUAUGUGAGAUUGAUUUGUUGGUUCAUGCCAA: 0.302
AGCACUAGAUUUAAUGGGGCCAAGAGGGUCCAAACCCCUUGCUAACAUACCACUUCUUUGUUUAACUCCUUUACCUUUCCAGCCCUUUGAGGAGGGACCAUGAGAACAGA: 0.82
ACAGGGGCUACCUUACCAGUAUAAAGAGCUGAUAACAGUACUCAGAAGAAUCUGUGAACAAAUACUUGAAAAUGGGUUCAAUGUAGACUGCCAUUAUGUGUGGUCUUCCC: 0.239

Study 2
Target: Interferon regulatory factor 3, full length, phosphomimetic (IRF3, Homo sapiens, UniProt Q14653, residues 1-427, S386D/S396D/S398D/S402D/T404D/S405D)
Method: protein-binding microarray
Form: double-stranded DNA, one strand shown
Sample: in vitro
Concentration: 2540 nM top
Setting: 60-bp whole probe
Added: salmon DNA 0.4 mg/ml
Relative to: random background probes
Reading: higher = stronger binding
Quantity: fitted relative affinity
All sequences stand within: GCCTAGCAC … GTCTTGATTCGCTTGACGCTGCTG
Target sequence (chain): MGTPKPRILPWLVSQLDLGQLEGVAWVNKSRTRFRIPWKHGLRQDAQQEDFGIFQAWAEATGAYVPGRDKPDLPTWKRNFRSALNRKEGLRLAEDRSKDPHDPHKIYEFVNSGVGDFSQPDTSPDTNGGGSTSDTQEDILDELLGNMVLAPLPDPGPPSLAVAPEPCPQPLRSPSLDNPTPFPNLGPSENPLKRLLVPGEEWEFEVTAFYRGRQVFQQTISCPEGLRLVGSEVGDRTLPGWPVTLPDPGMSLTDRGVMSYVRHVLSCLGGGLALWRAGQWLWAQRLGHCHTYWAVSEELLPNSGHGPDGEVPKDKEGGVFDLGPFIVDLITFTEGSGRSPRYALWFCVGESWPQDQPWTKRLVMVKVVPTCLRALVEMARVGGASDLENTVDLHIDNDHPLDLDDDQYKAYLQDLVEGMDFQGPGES
TTAGATTTCACTTCCGATTAGTGCTAG: 3.98 z-score
TCATTTTTTTTTTCATCACTGTGCTAG: 1.56 z-score
GACGGTATCGGACTGGTGACGTGCTAG: 1.61 z-score
AAGGAAATCGGTGATCAGTCTGTGCTA: -0.24 z-score
GACGATTTCAGACTGGAGAGGTGCTAG: 0.946 z-score
GCGCTTCTCGAGTGCCGGCTGGTGCTA: 0.108 z-score
GACGCTTTCAGTTTCGAGACGTGCTAG: 4.86 z-score
GGCAAAAACATGAACAGACAGTGCTAG: -0.53 z-score
GGGTCTTGCAGTATGGAAAGGTGCTAG: -0.299 z-score
TTAAGTCTCGGTATCGGTTAGTGCTAG: 2.85 z-score
CACGATATCGGGTTTCGAGACGTGCTA: 1.01 z-score

Study 3
Target: CCNB2, cyclin fold, Cln2 fusion (human)
Method: yeast growth competition, sequencing
Sample: yeast
Setting: weak parent motif
Relative to: not given
Reading: higher = stronger binding
Quantity: normalised enrichment score
Starting sequence: PKN2 docking peptide (human); VSAVQKLDFSDTM; partner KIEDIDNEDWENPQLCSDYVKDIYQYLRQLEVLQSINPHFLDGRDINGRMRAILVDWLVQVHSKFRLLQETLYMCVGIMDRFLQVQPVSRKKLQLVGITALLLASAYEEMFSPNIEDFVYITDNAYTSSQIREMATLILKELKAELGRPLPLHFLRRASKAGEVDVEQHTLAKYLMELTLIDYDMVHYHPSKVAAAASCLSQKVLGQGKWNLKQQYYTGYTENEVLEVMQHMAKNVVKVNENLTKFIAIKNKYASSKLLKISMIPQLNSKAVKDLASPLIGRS
VSAVQKLDRSDTM [F9R]: 0.397
VSAVQKLDFSDTE [M13E]: 0.672
VSAVQKLDFSDWM [T12W]: 0.312
DSAVQKLDFSDTM [V1D]: -0.133
VSAVQKLDFNDTM [S10N]: -0.423
VSAVQKADFSDTM [L7A]: -0.161
VSAVQKLDPSDTM [F9P]: -0.245
VSAVQKLDFVDTM [S10V]: -0.0713
VSAVQKLGFSDTM [D8G]: -0.429
VSAVQKLDWSDTM [F9W]: -0.612

Mixed results
PhoQ, residues 284 288 289 292 302 303 TASMAF — fold induction (PhoP, residues 12 14 15 18 19 LYHSL (Escherichia coli, UniProt P23836); Sort-seq, refers to: YFP reporter; E. coli; PhoQ-PhoP variant library, added: 10 µM Mg2+; relative to: high Mg2+ state, higher = stronger signaling): 18.1

For quick reference, copied from above (study 3):
VSAVQKLDFVDTM [S10V]: -0.0713
VSAVQKLDRSDTM [F9R]: 0.397
